Measured values from different studies.
Every numbered part comes from another study and shows a few of its results, in no order. Substitutions count along the parent as printed.

Block 1 — method: DHFR PCA, deep sequencing; matrix: yeast; together with: (+)-ABA 0.032 µM; relative to: wild-type fitted maximum; direction: higher = stronger binding; endpoint: relative binding score
Target: ABI1, truncated, D143A, DHFR fusion (Arabidopsis thaliana)
Setting: methotrexate growth selection, single substitutions
Starting sequence: PYL1, truncated, DHFR fusion (Arabidopsis thaliana); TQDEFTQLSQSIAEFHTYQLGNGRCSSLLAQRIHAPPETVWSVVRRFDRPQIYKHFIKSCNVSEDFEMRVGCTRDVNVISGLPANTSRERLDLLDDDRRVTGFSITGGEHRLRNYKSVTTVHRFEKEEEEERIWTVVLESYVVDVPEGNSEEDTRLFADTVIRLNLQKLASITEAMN; partner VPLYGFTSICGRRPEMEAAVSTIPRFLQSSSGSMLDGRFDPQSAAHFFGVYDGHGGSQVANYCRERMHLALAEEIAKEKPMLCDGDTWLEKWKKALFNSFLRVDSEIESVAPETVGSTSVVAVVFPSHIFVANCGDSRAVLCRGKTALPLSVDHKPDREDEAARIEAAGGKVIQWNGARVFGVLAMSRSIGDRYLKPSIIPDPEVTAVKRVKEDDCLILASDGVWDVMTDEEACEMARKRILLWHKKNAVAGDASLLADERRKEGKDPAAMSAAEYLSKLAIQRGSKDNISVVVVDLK
V100E: 3.2%
M68C: 2.61%
C25Q: 0.582%
A84D: 23.3%
E128I: 7.5%
N149Q: 50.5%
A158P: -6.23%
V78K: 1.05%
E131C: 39.2%
V76K: 6.49%
V161T: 10.8%
E38N: -1.26%
V137T: -0.727%
N177F: 42.8%
L169C: -0.611%
E151S: 22.8%
R99L: 54.4%

Block 2 — method: RNA Bind-n-Seq; molecule type: RNA; matrix: in vitro; concentration: 20 nM; setting: 6-mer, flanks averaged, single round; together with: 150 mM KCl; relative to: input library; direction: higher = stronger binding; endpoint: 6-mer enrichment (R)
Target: TAR DNA-binding protein 43, full length, His tag (TARDBP, Homo sapiens, UniProt Q13148, residues 1-414)
ACAUAU: 0.603
ACACGU: 0.663
ACAUUG: 0.645
CAGCUA: 0.642
UGUUAG: 0.884
CUCAAC: 0.576
CAGAGG: 1.91
CCAUCG: 0.668
CUAAAC: 0.585
GGCAUG: 1.77
CGCUAU: 0.616
CACCCA: 0.717
GGCUAU: 0.905
CGUAAA: 0.636
UUGGGC: 1.68
AGGAGA: 1.56
AGCGAC: 0.808
AAUAGU: 0.691
AGAGAC: 0.834
GUCCGC: 0.838
UGAUAU: 0.647
CAAUAC: 0.621
AGAGGU: 1.54

Block 3 — method: RNA Bind-n-Seq; molecule type: RNA; matrix: in vitro; concentration: 200 nM; setting: whole 134-nt RNA, ends assumed; together with: 150 mM KCl; relative to: input library; direction: higher = stronger binding; endpoint: log2 enrichment
Target: Ras GTPase-activating protein-binding protein 1, full length (G3BP1, Homo sapiens, UniProt Q13283)
Chain of UniProt Q13283 (whole entry, looked up): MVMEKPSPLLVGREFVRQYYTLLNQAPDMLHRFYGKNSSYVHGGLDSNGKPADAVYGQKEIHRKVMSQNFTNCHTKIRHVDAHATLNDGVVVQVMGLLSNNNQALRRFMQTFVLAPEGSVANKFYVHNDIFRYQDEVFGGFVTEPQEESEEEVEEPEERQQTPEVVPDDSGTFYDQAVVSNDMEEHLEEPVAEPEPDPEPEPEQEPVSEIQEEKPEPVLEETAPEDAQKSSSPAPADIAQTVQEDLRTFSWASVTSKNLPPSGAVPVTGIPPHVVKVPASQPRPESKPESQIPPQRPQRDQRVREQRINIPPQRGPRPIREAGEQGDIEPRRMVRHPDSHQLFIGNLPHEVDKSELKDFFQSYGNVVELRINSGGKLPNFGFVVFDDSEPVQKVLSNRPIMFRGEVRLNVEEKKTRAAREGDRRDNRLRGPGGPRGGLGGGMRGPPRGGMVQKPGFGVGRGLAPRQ
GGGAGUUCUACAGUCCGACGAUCAAGUCCUGUGCUACACAUCGUAUGUACCGAAUCGGGGAAAAGGGAAAAGGAAAAGGGAAAGUAUUAUGUUACGCCGUUCGGAUCUGCACUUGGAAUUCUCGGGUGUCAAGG: -0.541
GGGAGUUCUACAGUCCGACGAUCUCCUGUGCUACACAUCGUAUGUACCGAAUCGGGAAAAAAAGGGUUUUUGGGUUUUUGGGAAAGUAUUAUGUUACGCCGUUCGGAUCUGCAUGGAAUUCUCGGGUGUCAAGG: -0.577
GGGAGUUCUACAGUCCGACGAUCUCCUGUGCUACACAUCGUAUGUACCGAAUCGGCCCCCCCGGGCCCCCCCGGCCCCCCCGGAAAGUAUUAUGUUACGCCGUUCGGAUCUGCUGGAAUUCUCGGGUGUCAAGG: 0.302
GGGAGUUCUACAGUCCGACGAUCAUGAAGAUGAAGAAGAGGAUGAUGAGGACGAGGAUGACGACGACGACGAAGAUGAUGAAGAUGAUGAUGAUGAAGAUGAUGAGGAGGAGGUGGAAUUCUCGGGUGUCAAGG: 1.09
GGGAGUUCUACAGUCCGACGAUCUGUCUCGAGCAGGGGACAAGACGUUCGAGGAGUACCUGGAUGAGUAUUACCGGCUGGACUACGAGGACAUCAUCGACGACCUGCCCUGUCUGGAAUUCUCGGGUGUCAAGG: -0.599
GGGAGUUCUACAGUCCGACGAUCGUCCUGUGCUACACAUCGUAUGUACCGAAUCGGGAAAAAAAGGGUUUUUGGGUUUGGGAAAGUAUUAUGUUACGCCGUUCGGAUCUGCACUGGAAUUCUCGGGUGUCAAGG: -0.519
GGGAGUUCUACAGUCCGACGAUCUGGGAGGUGGAUUUUGUUUAUUUUUUUAGCUCAUUUCCAGGGGUGGGAAUUUUUUUUUAAUAUGUGUCAUGAAUAAAGUUGUUUUUGAUAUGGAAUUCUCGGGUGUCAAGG: 0.231
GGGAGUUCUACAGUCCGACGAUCUCAAGUCCUGUGCUACACAUCGUAUGUACCGAAUCGGGGUUGGGUUGGUUGGGGAAAGUAUUAUGUUACGCCGUUCGGAUCUGCACUUCCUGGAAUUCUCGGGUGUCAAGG: 0.799
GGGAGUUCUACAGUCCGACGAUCUCUCAGCACCCUCGUGAAACUGGACAAGAAGCCAGUGGAGACCAACGGUCCUGAUGCCAAUCACGAGUACAGUACAAGCAGCCAGCAUAUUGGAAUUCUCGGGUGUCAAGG: -0.586
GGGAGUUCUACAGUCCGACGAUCCCUCAAGUCCUGUGCUACACAUCGUAUGUACCGAAUCGGAAAGGUUUGGUGGAAAGUAUUAUGUUACGCCGUUCGGAUCUGCACUUCCAGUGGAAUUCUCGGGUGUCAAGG: -0.37

Block 4 — method: RNA Bind-n-Seq; molecule type: RNA; matrix: in vitro; concentration: 365 nM; relative to: no-protein control; direction: higher = stronger binding; endpoint: RBNS enrichment (R)
Target: RNA binding protein fox-1 homolog 2, RRM domain, GST-SBP tag (RBFOX2, Homo sapiens, UniProt O43251-10, residues 100-194)
Setting: natural RNA segment, single round, ends assumed
Residues (chain): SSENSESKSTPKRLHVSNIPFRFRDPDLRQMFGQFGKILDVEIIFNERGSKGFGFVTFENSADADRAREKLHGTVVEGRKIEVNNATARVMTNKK
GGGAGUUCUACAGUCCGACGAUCGCCCUGACAUGGCCUGGAGACAUUUUCCCCAUGGUGUUGGGGAUUAACAUUAGGCUCCUUGCUACUUAUGCAAAUUUCUGCAGCUGGCUUGAAUUUCUCCCCAGAAAAUGUGGAAUUCUCGGGUGCCAA: 0.589
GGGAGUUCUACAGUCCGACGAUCCGGCCCUGUGCUUAAGACACUCCUGCUGCCCCGUCUGAGGGUGGCAAUUAAAGUUGCUUCACAUCCUCGCCUGCCUCUGGGUCUCUGUCUCCCUUGGCCUGGGCAGCCUGUGGAAUUCUCGGGUGCCAA: 0.305
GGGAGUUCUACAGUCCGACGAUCUGGGACCGACUUUGUUUCUUUGUUAUUUAUGAUCUUGUUUAAAGAAAAUAAAUAUCUCCCAACCUUUUUUGUCUGAGGAGCUGUCCUUACUUUGCUGAUCUGGCUAGGAAUGGAAUUCUCGGGUGCCAA: 0.564
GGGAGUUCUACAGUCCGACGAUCUCUCCUUCUCUGCUCUUAAACCUGGAGACGCUUGCUCUGCCUUCUCCCCUAUCACUUCAAGUGUUUAUACCUGAGUUUCUUAGGAAGAAAGUAAGUCUGAUGGCUUGUUGUGGAAUUCUCGGGUGCCAA: 6.94
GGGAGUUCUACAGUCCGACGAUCUCCUAACCUCUUCUGGAAACACCCUAGCAUGUUUUCCCAGCUAGCUGGGUAUCCGUUCACCCAACCAAGACGACCAUGCAAUCAACCAUCACACUUAAAUGUUUUUGUUUUGGAAUUCUCGGGUGCCAA: 1.1
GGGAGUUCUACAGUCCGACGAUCAGCCACUGCACCUGGCGGGGUCUUGCUUAUUUUAAAAGAAAUAUUCUGAUUCAUAUUUUAGGACUUUUUGUCAACGAAAUUGGUUUUGAUCCCUUUGGGUACCAUUUUUAUGGAAUUCUCGGGUGCCAA: 0.515
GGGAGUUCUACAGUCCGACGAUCAGUAAAUAAAAUACAUAUUUGACAGCCCCCUCAUCCCCCAGAACAAUCCCUCAAAGGCUACCCUACCCGUGAUACCUUCUGGGAGGGGCGGAGUCACCGAGACUGAGAUGUGGAAUUCUCGGGUGCCAA: 0.27
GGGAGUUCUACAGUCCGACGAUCGCACUUGAAAACCAACACACUCAGAAAAAGCCACAGAUUGUUAAAAGCCUAAUUGUAGUUCGUAACAAUUUGUCAGUACGUACUAAUUGCCUUAUUCUUCAGCUAGUGGUUGGAAUUCUCGGGUGCCAA: 0.366
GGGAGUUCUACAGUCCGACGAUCUCCUUUUUCUAUAUCCCCUUAGUCCAGCCUCUCUUCUCAGACAUUUAGCUAUCUGCCUCUUUCCUUUAGCUGGGAAAGUGAGAGCUGGCAUACUAUGCAGUUUUUAUGUUUGGAAUUCUCGGGUGCCAA: 1.33
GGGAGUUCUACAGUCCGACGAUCUACCCAUCCCCUGAUGCCCAGGUCACCGGGAGGGCUGCUGGGAGCCUCUCCUGUCCCCGCCGGGCAGUGUCACUGAGUCCUUGAAAUCCUCCCCUGCCCCGCGGGUCUCUUGGAAUUCUCGGGUGCCAA: 0.443
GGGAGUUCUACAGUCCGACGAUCGUUUAUUUAAAACUUUUUUUAAUCCAGAUGUAGACUAUAUUCUAAAAAAUAAAAACGCAGAUGUGUUAACAAAACUGGACAAGUGUGUGUUGCUCUUUAAUCCACCAAUGUGGAAUUCUCGGGUGCCAA: 0.41
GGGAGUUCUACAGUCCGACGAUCGUCCUCCGAGGACCGGAACACGUUUCUGCGACCCGGGGCUCUGGCCAGCACUGUGUUCUGCGUUUGGUCUCAUACCUGCGUCUACCUUCCAUCUGUGUCCAGCGGCCCCGUGGAAUUCUCGGGUGCCAA: 0.24

Excerpt of the above (block 2):
CAGCUA: 0.642
UGUUAG: 0.884
CUCAAC: 0.576
CAGAGG: 1.91
CCAUCG: 0.668
CUAAAC: 0.585
GGCAUG: 1.77
CGCUAU: 0.616
CACCCA: 0.717
GGCUAU: 0.905
